Results pooled from the literature.
Every numbered part comes from another study and shows a few of its results, in no order.

Study 1
Target: RNA binding protein fox-1 homolog 2, RRM domain, GST-SBP tag (RBFOX2, Homo sapiens, UniProt O43251-10, residues 100-194)
Technique: RNA Bind-n-Seq
Form: RNA
Sample: in vitro
Tested at: 365 nM
Setting: natural RNA segment, single round, ends assumed
Baseline: no-protein control
Reading: higher = stronger binding
Constant ends, left off below: GGGAGUUCUACAGUCCGACGAUC … UGGAAUUCUCGGGUGCCAA
| Strand | RBNS enrichment (R) |
| --- | --- |
| AUUCCCUUUGACUUCAGCUGCCUGAAACAGCCAUGUCCAAGUUCUUCACCUCUAUCCAAAGAACUUGAUUUGCAUGGAUUUUGGAUAAAUCAUUUCAGUAUCAUCUCCAU | 1.42 |
| UCUAAAUGCCGAUUUGAGUUCGCGACACAAUGUACUGCGUUUUCAUUCUUGUAUUUGACUAUUUAAUCCUUUCUACUUGUCGCUAAAUAUAAUUGUUUCAGUCCUAUGGC | 0.756 |
| AUUGUUUGCUCUCCUGUCUGCCCCAGCUGUUUCUGGCAUAUUAUUUUUUGUUAGCUGAGACAUUGACAUGUUUGUAUUUAAUUCUCUUGAUAAAUUAGCUACUACAACCC | 1.01 |
| CUCUAGUGAUGUUCACCACUUUUAUUUAUUCCUACCUAUUUAUUUAUUUCAUAGCACCAGUAUUCAGGCUUUCAUGAACAUCAUUUUGGGGGAGCAAGACUUCAUCUGUA | 0.591 |
| ACAUUUUUAUUUUUUGUCUCAGAGGGGAUAAUUGGGAGUGUAUAGUGGAGCAGGGUGGGGCGGGGCUACAGGUUCUGUGUGCACCUGUCACCUCCACUAACGCUGUCUCA | 0.497 |

Study 2
Target: Histone acetyltransferase KAT6A, winged helix 2, GST fusion (KAT6A, Homo sapiens, UniProt Q92794, residues 85-181)
Technique: protein binding microarray
Form: double-stranded DNA, one strand shown
Sample: in vitro
Tested at: not given
Setting: 8-mer, flanks averaged, mean of 2 arrays, mostly near background
Baseline: not given
Reading: higher = stronger binding
Target sequence (chain): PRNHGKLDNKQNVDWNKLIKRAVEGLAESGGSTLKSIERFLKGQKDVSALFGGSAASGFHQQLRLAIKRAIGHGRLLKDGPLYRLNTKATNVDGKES
| Strand | E-score |
| --- | --- |
| CGGGATTA | -0.0124 |
| CCTTTTTC | 0.108 |
| TCATTGGA | 0.0739 |
| ACACCACT | 0.153 |
| ACAATCAG | -0.00207 |

Study 3
Target: Sox, HMG box (Pigoraptor chileana)
Technique: Spec-seq
Form: double-stranded DNA, one strand shown
Sample: in vitro
Tested at: not given
Setting: whole probe, mean of replicates
Baseline: not given
Reading: lower = stronger binding
Constant ends, left off below: GAGTCGTCTCGTCAGCAC … CCGTAGAGCACTCAGGTC
Residues (chain): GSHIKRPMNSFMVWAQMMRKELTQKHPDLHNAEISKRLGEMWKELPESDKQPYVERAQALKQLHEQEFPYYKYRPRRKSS
| Strand | relative binding energy [ln ratio] |
| --- | --- |
| ACCCGTT | -0.111 |
| CATGCGA | 0.672 |
| CATCTTA | 0.314 |
| CATCTGG | 0.732 |
| GCAGGTT | 1.24 |
| CATTCGG | 0.673 |
| CATGTTG | 0.546 |

Single results of other studies
| Molecule | target | test | system | setting | how to read | measurement | result |
| --- | --- | --- | --- | --- | --- | --- | --- |
| PhoQ, residues 284 288 289 292 302 303 NLMGRA | PhoP, residues 12 14 15 18 19 SPWRL (Escherichia coli, UniProt P23836) | Sort-seq, measured: YFP reporter | E. coli | PhoQ-PhoP variant library, with: 10 µM Mg2+ | baseline: high Mg2+ state, higher = stronger signaling | fold induction | 7.34 |

Excerpt of the above (study 2):
| Strand | E-score |
| --- | --- |
| TCATTGGA | 0.0739 |
| ACACCACT | 0.153 |
| ACAATCAG | -0.00207 |
